Measured values from different studies.
Each numbered part is a random draw from the data of one study; scales do not carry over between parts.

Sample 1
Target: Myc proto-oncogene protein, bHLH-zipper, MAX partner unstated (MYC, Homo sapiens, UniProt P01106, residues 368-449)
UniProt P01106, sequence (368-449, looked up): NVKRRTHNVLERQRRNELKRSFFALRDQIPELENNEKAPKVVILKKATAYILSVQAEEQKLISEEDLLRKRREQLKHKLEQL
Technique: protein-binding microarray
Form: double-stranded DNA, one strand shown
Sample: in vitro
Tested at: not given
Notes: k-mer, scored over probes, only values ≥0.25
Reading: higher = stronger binding
Strand	E-score
CGGCACCA	0.292
ACATGACC	0.26
ACCCACCT	0.279
CCAAGCAC	0.3
ACCGGCAC	0.261
ACACCCCA	0.265
AGCACACG	0.381
CCTCGTGC	0.47

Sample 2
Target: Sal-like protein 4, full length isoform A (SALL4, Homo sapiens, UniProt Q9UJQ4, residues 1-1053)
UniProt Q9UJQ4, sequence (whole entry, looked up): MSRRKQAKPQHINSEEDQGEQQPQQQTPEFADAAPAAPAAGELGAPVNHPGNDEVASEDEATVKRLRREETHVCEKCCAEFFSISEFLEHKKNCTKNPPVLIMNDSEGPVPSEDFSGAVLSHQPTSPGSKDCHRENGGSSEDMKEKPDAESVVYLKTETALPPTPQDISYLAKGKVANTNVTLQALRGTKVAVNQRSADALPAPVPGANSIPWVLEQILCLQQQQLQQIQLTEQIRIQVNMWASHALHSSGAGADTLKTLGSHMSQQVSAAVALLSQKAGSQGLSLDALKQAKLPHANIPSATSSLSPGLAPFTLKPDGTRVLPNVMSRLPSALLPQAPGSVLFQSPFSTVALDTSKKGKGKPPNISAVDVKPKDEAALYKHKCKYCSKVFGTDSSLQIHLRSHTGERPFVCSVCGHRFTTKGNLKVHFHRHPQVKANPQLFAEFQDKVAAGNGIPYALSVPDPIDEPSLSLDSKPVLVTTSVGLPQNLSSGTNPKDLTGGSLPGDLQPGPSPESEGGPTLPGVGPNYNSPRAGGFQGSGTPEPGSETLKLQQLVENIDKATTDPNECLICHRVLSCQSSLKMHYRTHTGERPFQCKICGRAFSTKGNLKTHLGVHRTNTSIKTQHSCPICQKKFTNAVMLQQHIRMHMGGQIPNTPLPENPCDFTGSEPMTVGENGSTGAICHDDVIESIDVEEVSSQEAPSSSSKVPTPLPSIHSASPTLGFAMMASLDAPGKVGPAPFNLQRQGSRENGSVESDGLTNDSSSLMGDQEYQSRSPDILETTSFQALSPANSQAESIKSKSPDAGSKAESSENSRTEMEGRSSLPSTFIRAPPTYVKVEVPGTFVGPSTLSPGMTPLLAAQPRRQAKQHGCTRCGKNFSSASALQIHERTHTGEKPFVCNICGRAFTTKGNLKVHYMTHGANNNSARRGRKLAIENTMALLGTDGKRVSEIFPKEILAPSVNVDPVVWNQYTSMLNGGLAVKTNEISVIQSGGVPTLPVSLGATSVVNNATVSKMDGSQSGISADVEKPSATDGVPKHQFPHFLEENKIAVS
Technique: universal PBM
Form: double-stranded DNA, one strand shown
Sample: in vitro
Tested at: 600 nM
Notes: 8-mer, flanks averaged, mean of replicates
Reading: higher = stronger binding
Strand	E-score
TCCGGCAA	-0.119
TACACCAA	-0.00789
GATTACGC	0.0952
ACAAGCTA	-0.00405
TCCTGCAA	0.0413
ACTCATGG	0.148

Sample 3
Target: Ras GTPase-activating protein-binding protein 1, RRM domain (G3BP1, Homo sapiens, UniProt Q13283)
UniProt Q13283, sequence (whole entry, looked up): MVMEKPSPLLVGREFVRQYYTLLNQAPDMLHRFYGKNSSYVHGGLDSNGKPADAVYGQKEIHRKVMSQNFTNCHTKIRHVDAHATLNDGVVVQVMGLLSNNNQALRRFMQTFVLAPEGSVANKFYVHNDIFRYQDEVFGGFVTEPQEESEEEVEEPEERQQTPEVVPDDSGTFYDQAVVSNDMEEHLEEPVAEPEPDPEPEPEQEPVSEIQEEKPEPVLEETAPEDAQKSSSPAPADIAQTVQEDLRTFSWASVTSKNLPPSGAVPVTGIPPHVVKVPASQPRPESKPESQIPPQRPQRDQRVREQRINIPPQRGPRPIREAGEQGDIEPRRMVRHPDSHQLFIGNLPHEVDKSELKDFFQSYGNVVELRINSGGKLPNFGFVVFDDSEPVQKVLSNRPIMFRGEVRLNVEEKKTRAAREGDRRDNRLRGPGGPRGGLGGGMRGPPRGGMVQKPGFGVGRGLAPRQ
Technique: RNA Bind-n-Seq
Form: RNA
Sample: in vitro
Tested at: 1 µM
Notes: whole 134-nt RNA, ends assumed
Added: 150 mM KCl
Relative to: input library
Reading: higher = stronger binding
Strand	log2 enrichment
GGGAGUUCUACAGUCCGACGAUCCCUGUGCUACACAUCGUAUGUACCGAAUCAAAGUGUGUGUGUGUAAAGUGUGUGUGUAAAAAAGUAUUAUGUUACGCCGUUCGGAUCUGCUGGAAUUCUCGGGUGUCAAGG	-0.156
GGGAGUUCUACAGUCCGACGAUCCAAGUCCUGUGCUACACAUCGUAUGUACCGAAUCGGGGUUUGGGGUGGGGUGGGGAAAGUAUUAUGUUACGCCGUUCGGAUCUGCACUUCUGGAAUUCUCGGGUGUCAAGG	0.992
GGGAGUUCUACAGUCCGACGAUCUCCUGUGCUACACAUCGUAUGUACCGAAUCGGGGAGGGGUUUUUUUGGGGAAAAAGGGGAAAGUAUUAUGUUACGCCGUUCGGAUCUGCAUGGAAUUCUCGGGUGUCAAGG	0.654

Mixed results
Substance	target	assay	test system	conditions	how to read	endpoint	result
PhoQ, residues 284 288 289 292 302 303 AAQSYM	PhoP, residues 12 14 15 18 19 NYFRM (Escherichia coli, UniProt P23836)	Sort-seq, refers to: YFP reporter	E. coli	PhoQ-PhoP variant library, added: 10 µM Mg2+	relative to: high Mg2+ state, higher = stronger signaling	fold induction	16.6

Some of these lines once more (sample 1):
Strand	E-score
ACATGACC	0.26
ACCCACCT	0.279
